Published values pooled from the literature.
Lines come from different studies, so protocols differ. ± gives the spread as reported. Values after ≈ are worked out from the molar mass of the structure shown.
Organism: Candida albicans

| SMILES | test | system | setting | how to read | measurement | result |
| --- | --- | --- | --- | --- | --- | --- |
| CC(C)[C@H]1NC(=O)[C@H](Cc2ccccc2)NC(=O)[C@@H](C(C)C)NC(=O)[C@@H](C)NC(=O)[C@H](CO)NC(=O)[C@@H](Cc2c[nH]c3ccccc23)NC(=O)[C@@H](CO)NC1=O | broth dilution |  |  |  | MIC90 | > 50 µM |
| OC(Cn1cncn1)(Cn1cc(-[c-]2cccc2)nn1)c1ccc(F)cc1F.[Cl-].[Co+3].c1cc[cH-]c1 (racemic) | EUCAST | SC5314 | 48 h |  | MIC50 | 100 µM |
| N=C(N)NCCC[C@@H]1NC(=O)[C@H](CCCNC(=N)N)NC(=O)[C@@H](C(c2ccccc2)c2ccccc2)NC(=O)[C@H](Cc2c[nH]c3ccccc23)NC(=O)[C@@H](C(c2ccccc2)c2ccccc2)NC(=O)[C@@H](CCCNC(=N)N)NC(=O)[C@@H](CCCNC(=N)N)NC1=O |  | ATCC 60193 | 1 x MIC, 24 h, preformed biofilm |  | biofilm mass reduction | 37% |
| Oc1cccc2c1[nH]c1c(C3=CC4(O)CCC=CCCCCN5CCC3C3(CC6C=CCCCCN6C43)C5)nccc12 (single isomer, unassigned; (+)) | growth | ATCC 90028 |  |  | IC50 | 2.67 ± 0.06 µg/mL (≈ 4.73 µM) |
| CC(C)[C@H](NC(=O)OCc1ccccc1)C(=O)N(C)[C@@H](Cc1ccc(OC(C)(C)C)cc1)C(=O)Nc1ccccc1C(=O)N[C@@H](C)C(=O)O | potentiator, broth microdilution | ATCC 90029 | 16.0 µg/mL, added: amphotericin B | relative to: amphotericin B alone | fold potentiation | 16 |
| COC(=O)c1cnc(-c2cnccn2)cc1C(=O)OC.COC(=O)c1cnc(-c2cnccn2)cc1C(=O)OC.F[P-](F)(F)(F)(F)F.[Ag+] | biofilm formation, crystal violet staining | ATCC 10231 | 1.75 µg/mL |  | inhibition | 51 ± 7% |
| CC[C@H]1OC(=O)[C@H](C)C(=O)[C@H](C)[C@@H](O[C@@H]2O[C@H](C)C[C@H](N(C)C)[C@H]2O)[C@](C)(OC)C[C@@H](C)C(=O)[C@H](C)[C@H]2N(CCCCn3cnc(-c4cccnc4)c3)C(=O)O[C@]12C | microbial growth | ATCC90028 |  |  | MIC | > 32 µg/mL |
| COC(=O)[C@H](C)NC(=O)c1ccccc1NC(=O)[C@H](Cc1ccc(OC(C)(C)C)cc1)N(C)C(=O)[C@@H](NC(=O)OCc1ccccc1)C(C)C | potentiator, broth microdilution | ATCC 90029 | 8.0 µg/mL, added: amphotericin B | relative to: amphotericin B alone | fold potentiation | 32 |
| N=C(N)NCCC[C@@H]1NC(=O)[C@H](CCCNC(=N)N)NC(=O)[C@@H](CCCNC(=N)N)NC(=O)[C@H](C(c2ccccc2)c2ccccc2)NC(=O)[C@H](C(c2ccccc2)c2ccccc2)NC(=O)[C@H](C(c2ccccc2)c2ccccc2)NC(=O)[C@H](CCCNC(=N)N)NC1=O |  | CA3 |  |  | MIC | 16 µg/mL (≈ 12.4 µM) |
